Results collected from several papers.
Values joined by “and” are separate records of one study, mostly repeats; a detail may differ. Numbers after ± are the reported error.

Structure (SMILES) | tested on | assay | system | conditions | scale | quantity | value
CC(C)C[C@@H](NC(=O)[C@H](C)NC(=O)CNC(=O)[C@@H](NC=O)C(C)C)C(=O)N[C@@H](C)C(=O)N[C@@H](C(=O)N[C@H](C(=O)N[C@@H](C(=O)N[C@@H](Cc1c[nH]c2ccccc12)C(=O)N[C@H](CC(C)C)C(=O)N[C@@H](Cc1ccc2[nH]ccc2c1)C(=O)N[C@H](CC(C)C)C(=O)N[C@@H](Cc1c[nH]c2ccccc12)C(=O)N[C@H](CC(C)C)C(=O)N[C@@H](Cc1c[nH]c2ccccc12)C(=O)NCCO)C(C)C)C(C)C)C(C)C |  | H+/Na+ transport, pyranine pH-gradient | EYPC/cholesterol LUVs 2:1 |  |  | EC50 | 43.4 ± 12.1 nM
Cn1cc(-c2ccc(-c3cncc(Cl)c3N3CCC4(CCNC4=O)CC3)cc2)cn1 | COLO 205 | gene expression, microarray, item: EDN1 mRNA |  | concentration not given, 6 h | relative to: untreated cells | log2 fold change | 1.53
N#Cc1ccc(C(c2ccc(C#N)cc2)n2cncn2)cc1 |  | ELISA | human patients, tumour homogenate | 15 mg daily |  | estradiol concentration | 21.5 ± 8.02 pg/mL
O=C(O)CNC(=O)Cc1ccccc1 |  |  | ventricular cardiomyocytes, C57BL/6 mouse | dose not given, 0.44 s |  | sarcomere length | 1.72 µm
CCOCc1nc(O)c(-c2nnc(Cc3ccc(Cl)cn3)o2)c(O)c1-c1c(OC)cccc1OC |  |  | renal hypertensive rat | po, 0.2 mg/kg once daily, peak exposure | relative to: vehicle | cardiac output increase | 26%
N#Cc1ccn2c(-c3ccncc3)c(-c3ccc(F)cc3)nc2c1 |  | kinase binding, competitor, MIB/MS competition, item: SSK2 | Candida albicans cell lysate | 10 µM | relative to: DMSO | log2 fold change | 0.245
Cc1cc([C@H]2C[C@H]3[C@@H](CF)SC(N)=N[C@@]3(c3ccc(F)cc3F)CO2)on1 |  | item: Aβx-40 | wild-type mouse, brain | subcutaneous, 100 mg/kg, 5 h |  | brain Aβ40 level | 1.51 ng/g
O=C1N(Cc2ccccc2Cl)c2ccccc2C12NN=C(c1ccccc1)S2 (stereo not shown) |  |  | SK-BR-3 xenograft, mouse | intraperitoneal, 925.5 mg/kg total, subcutaneous xenograft | relative to: vehicle | T/C | > 100%
Cn1cc(Nc2nccc(-c3ccc4c(c3)CN(C3COC3)CC[C@H]4NC(=O)c3cn(C(C)(C)C)nn3)n2)cn1 |  | item: Tryptophan Degradation III (Eukaryotic) | splenic B cells, mouse | in vivo, 30 mg/kg, IgD-activated B cells | relative to: vehicle, positive = activation | pathway activation z-score | 2.12
Cc1cn(-c2ccc3n(c2=O)CCN([C@@H](C)[C@@H]2CC[C@H](c4cc(F)c(Cl)cc4C(F)(F)F)O2)C3=O)cn1 |  | item: amyloid beta 38 | human, non-elderly, cerebrospinal fluid | 40 mg once daily, 14 days, sampled 336 h | relative to: placebo | change from baseline | 11.2%
C[C@H](CS)C(=O)N1CCC[C@H]1C(=O)O |  |  | mouse, unilateral ureteral obstruction, left kidney (obstructed) | dose not given |  | fibrosis area | 4.36% and 9.77% and 3.9% and 14.6% and 2.6% and 8.88%
CCN(Cc1nc2c(N)nc3cc(-c4cc[nH]n4)ccc3c2[nH]1)C(C)=O |  | Luminex, item: IL-1β | cancer patients, serum | 1200 µg monotherapy, first 24 h | relative to: baseline | fold change | 2.9
CSCCNc1nc(SCCC(F)(F)F)nc2c1ncn2[C@@H]1O[C@H](COP(=O)(O)OP(=O)(O)C(Cl)(Cl)P(=O)(O)O)[C@@H](O)[C@H]1O |  | ADP-induced platelet aggregation, LTA, >59% aggregation | human patients, platelet-rich plasma | dose not given, 1 h, with: ADP 20 µM |  | patients with high reactivity | 55%
Cc1noc(C)c1-c1cc(C(O)(c2ccccn2)c2ccccn2)c2nc(C3CC3)[nH]c2c1 |  | item: CCR2 expression | human, peripheral blood | 6 mg, day 8, 1604 study |  | maximum inhibition | 50%
OC(CCN1CCCCC1)(c1ccccc1)C1CC2C=CC1C2 (stereo not shown) |  | resting-state EEG | healthy elderly humans | oral, 2 mg, eyes closed, LS mean |  | EEG Beta2-power Fz-Cz | 0.9 µV²
COc1ccc(-c2cncc(N[C@@H](C)c3cccc(NC(=O)c4cncc(C)c4)c3)n2)cc1OC |  | item: rno-miR-32-5p | rat SU5416/hypoxia model, lung | dose not given, unit not given | relative to: SU5416/hypoxia vehicle | delta delta Ct | 0.995
N#Cc1ccc2c(c1)[C@H]1CCCN(C(=O)c3ccc4[nH]cnc4c3)[C@H]1C2 |  |  | human clinical trial | oral, 240 mg once daily, 28 d |  | body weight change from baseline | -0.11 kg
C[C@H]1C[C@H]2CSC(N)=N[C@@]2(c2nc(NC(=O)c3ccc(OC(F)F)cn3)cs2)CO1 |  | item: Aβ1-40 | healthy adults, plasma | 125 mg once daily, day 4 | relative to: placebo | percent change from baseline | -87.4%
Cn1nnc2c(C(N)=O)ncn2c1=O |  |  | mouse subcutaneous GBM PDX sample C | subcutaneous, dose not given |  | T/C ratio | 80%

Some of these lines once more:
Structure (SMILES) | tested on | assay | system | conditions | scale | quantity | value
CSCCNc1nc(SCCC(F)(F)F)nc2c1ncn2[C@@H]1O[C@H](COP(=O)(O)OP(=O)(O)C(Cl)(Cl)P(=O)(O)O)[C@@H](O)[C@H]1O |  | ADP-induced platelet aggregation, LTA, >59% aggregation | human patients, platelet-rich plasma | dose not given, 1 h, with: ADP 20 µM |  | patients with high reactivity | 55%
C[C@H]1C[C@H]2CSC(N)=N[C@@]2(c2nc(NC(=O)c3ccc(OC(F)F)cn3)cs2)CO1 |  | item: Aβ1-40 | healthy adults, plasma | 125 mg once daily, day 4 | relative to: placebo | percent change from baseline | -87.4%
